Measured values pooled from the literature.
A part holds a random share of what one study measured.

Sample 1
Target: Histone acetyltransferase KAT6A, winged helix 1, GST fusion (KAT6A, Homo sapiens, UniProt Q92794, residues 1-85)
Technique: protein binding microarray
Molecule type: double-stranded DNA, one strand shown
Sample: in vitro
Tested at: not given
Notes: 8-mer, flanks averaged, mean of 2 arrays, mostly near background
Reference: not given
Reading: higher = stronger binding
Construct (chain): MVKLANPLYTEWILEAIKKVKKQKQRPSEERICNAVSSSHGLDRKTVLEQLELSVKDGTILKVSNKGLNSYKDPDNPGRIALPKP
Oligonucleotide	E-score
CATCCTCG	0.121
ACTTGAAC	-0.194
GGTTTAGA	-0.0099
AAAAGTTA	-0.0294
CTTATTGC	-0.0779
GAACCGTA	0.248
GGCGCCGA	0.383
CTTCTGCC	-0.0689
AGCAGTCA	-0.143
ACAAACTC	-0.127
ACAGCTCC	-0.143
AATCCGGG	0.118
CAGGCTGC	-0.151

Sample 2
Target: Interferon regulatory factor 5, full length, phosphomimetic (IRF5, Homo sapiens, UniProt Q13568-2, residues 1-514, K96S/S451D/S453D/S456D/S462D)
Technique: protein-binding microarray
Molecule type: double-stranded DNA, one strand shown
Sample: in vitro
Tested at: 250 nM
Notes: 60-bp whole probe
Added: salmon DNA 0.4 mg/ml
Reference: random background probes
Reading: higher = stronger binding
All sequences stand within: GCCTAGCAC … GTCTTGATTCGCTTGACGCTGCTG
Oligonucleotide	log fluorescence
TCATATATCTGTGTTATACTGTGCTAG	0.806 z-score
GACGGTATCGGGTAGCGGGACGTGCTA	2.7 z-score
TTAGGTCTTGGTTTCGGTTAGTGCTAG	9.1 z-score
TCATACATGGGTTTTCAGACTGTGCTA	0.357 z-score
TTTTCTCTGGTTCTTGCTTGGTGCTAG	1.42 z-score
TTAAATTTCAGTTCCGATTAGTGCTAG	3.78 z-score
CCTCTTTTTTGTTCCACGCCGTGCTAG	0.786 z-score

Sample 3
Target: Prothrombin, mature alpha-thrombin (F2, Homo sapiens, UniProt P00734)
Technique: aptamer microarray, sandwich
Molecule type: DNA with 2'F-ANA
Sample: in vitro
Tested at: 200 nM
Notes: whole 15-mer aptamer, many near background
Added: Cy3 exosite-II aptamer, 400 nM
Reading: higher = stronger binding
Oligonucleotide: GGTTGGTGTGGTTGG
Modification	mean fluorescence intensity
2'F-ANA at 1 2 8 9 10 11 13 14	69.9 a.u.
2'F-ANA at 3 4 5 7 9 13 14	52.5 a.u.
2'F-ANA at 2 4 5 6 11 12	109 a.u.
2'F-ANA at 4 6 8 13 15	187 a.u.
2'F-ANA at 1 2 3 4 5 8 10 13	46.4 a.u.
2'F-ANA at 3 4 6 10 11 12	289 a.u.
2'F-ANA at 3 4 6 8 11 14 15	248 a.u.
2'F-ANA at 1 2 4 7 8 9 13 15	97.7 a.u.
2'F-ANA at 1 2 3 4 5 11 12 13 14 15	51.7 a.u.
2'F-ANA at 1 3 5 6 14 15	62.2 a.u.
2'F-ANA at 1 3 4 5 9 10 12 13 15	46.5 a.u.
2'F-ANA at 1 4 6 9 10 11 14 15	74.7 a.u.
2'F-ANA at 1 2 3 4 5 7 9 10 12 13 14 15	45.4 a.u.

Other studies, line by line
Substance	target	assay	test system	conditions	how to read	measurement	value
PhoQ, residues 284 288 289 292 302 303 SIHMAM	PhoP, residues 12 14 15 18 19 VQALL (Escherichia coli, UniProt P23836)	Sort-seq, refers to: YFP reporter	E. coli	PhoQ-PhoP variant library, added: 10 µM Mg2+	reference: high Mg2+ state, higher = stronger signaling	fold induction	7.68

Excerpt of the above (sample 1):
Oligonucleotide	E-score
ACAGCTCC	-0.143
GGTTTAGA	-0.0099
AGCAGTCA	-0.143
ACTTGAAC	-0.194
AAAAGTTA	-0.0294
